Measured values of several laboratories.
Each numbered part is a random draw from the data of one study; scales do not carry over between parts.

Block 1
Target: Sal-like protein 4, full length isoform B (SALL4, Homo sapiens, UniProt Q9UJQ4-2, residues 1-616)
Method: universal PBM
Molecule type: double-stranded DNA, one strand shown
Sample: in vitro
Concentration: not given
Notes: 8-mer, flanks averaged, mean of replicates
Direction: higher = stronger binding
Residues (chain): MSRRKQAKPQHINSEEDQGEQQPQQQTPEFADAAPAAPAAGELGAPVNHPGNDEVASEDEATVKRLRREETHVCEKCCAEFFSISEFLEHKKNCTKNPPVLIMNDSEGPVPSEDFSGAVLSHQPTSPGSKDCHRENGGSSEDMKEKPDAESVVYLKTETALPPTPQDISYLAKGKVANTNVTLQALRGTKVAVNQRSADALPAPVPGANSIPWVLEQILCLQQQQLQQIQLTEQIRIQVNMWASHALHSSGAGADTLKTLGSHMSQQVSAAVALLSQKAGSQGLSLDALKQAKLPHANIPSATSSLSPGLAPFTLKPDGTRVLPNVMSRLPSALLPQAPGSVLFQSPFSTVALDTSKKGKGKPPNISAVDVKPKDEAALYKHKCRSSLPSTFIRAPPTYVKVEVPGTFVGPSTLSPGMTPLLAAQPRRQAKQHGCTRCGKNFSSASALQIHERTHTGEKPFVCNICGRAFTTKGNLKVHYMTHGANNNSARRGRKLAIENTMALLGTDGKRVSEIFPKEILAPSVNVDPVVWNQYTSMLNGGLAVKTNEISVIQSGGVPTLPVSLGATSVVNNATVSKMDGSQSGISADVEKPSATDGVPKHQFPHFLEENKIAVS
Sequence	E-score
ACTACTAC	0.114
GCGTGCTA	-0.115
AACGACGG	0.0048
TGGTCTAA	-0.0406
CTGGGAGA	-0.316
CATACCCC	0.0204
GACTAATC	0.0151
ATGGAGAC	0.049
CAGGTCAC	-0.346
TCAGGACA	-0.0189
AGCTGCCA	-0.159
ATCACGAT	0.167
ACCGGTAA	-0.0914
AATACTTG	0.181
AGTCCCAT	0.0396
AAGATCGC	-0.0882
CAGAGCGG	-0.175
TCGGTAGA	0.0738
GTATCCTA	0.154
CCGGGTCG	-0.364
CGAACAAA	0.141
CCTCATCA	0.0543
CATTTGCA	0.116
AGCTCCAA	-0.0243
ACGCGCCC	-0.209

Block 2
Target: Histone acetyltransferase KAT6A, both winged helices, GST fusion (KAT6A, Homo sapiens, UniProt Q92794, residues 1-181)
Method: protein binding microarray
Molecule type: double-stranded DNA, one strand shown
Sample: in vitro
Concentration: not given
Notes: 8-mer, flanks averaged, mean of 2 arrays, mostly near background
Baseline: not given
Direction: higher = stronger binding
Residues (chain): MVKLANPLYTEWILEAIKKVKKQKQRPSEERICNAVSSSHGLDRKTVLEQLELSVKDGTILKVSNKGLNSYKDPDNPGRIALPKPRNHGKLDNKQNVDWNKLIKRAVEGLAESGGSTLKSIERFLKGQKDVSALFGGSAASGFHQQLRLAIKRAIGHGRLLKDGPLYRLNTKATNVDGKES
Sequence	E-score
ACGAACAT	-0.0596
GGCTTTCA	-0.0137
TAAGGTAA	-0.091
ACTACCGA	0.0511
CTTCACTC	-0.155
AAAATGGG	-0.0946
GACGTTGA	-0.0493
CATTCCCA	-0.0955
GCGCTCGA	0.241
CTATAGCA	0.061
GTGCCATA	-0.0125
CACTTGTA	-0.143
TTAATGAA	-0.137
ATCGTTTC	-0.0581
TGTTTAAA	-0.0698
CGCATTGC	0.159
CGATTGAC	0.0982
GAGCCACC	-0.0708
GATGGAGA	-0.102
ACTGGATA	-0.173
CTTTTATA	-0.018
GTGTAACA	-0.038
GACTCTCC	-0.192
CAGTTGAA	-0.0609
AATCTACT	0.0207

Block 3
Target: Interferon regulatory factor 5, full length, phosphomimetic (IRF5, Homo sapiens, UniProt Q13568-2, residues 1-514, K96S/S451D/S453D/S456D/S462D)
Method: protein-binding microarray
Molecule type: double-stranded DNA, one strand shown
Sample: in vitro
Concentration: 250 nM
Notes: 60-bp whole probe
Together with: salmon DNA 0.4 mg/ml
Baseline: random background probes
Direction: higher = stronger binding
Shared flanks, not repeated: GCCTAGCAC … GTCTTGATTCGCTTGACGCTGCTG
Sequence	log fluorescence
TTATCAATCATTTTAGTTTTGTGCTAG	1.85 z-score
AACGGTTTCCTTTTCCTGACGTGCTAG	1.6 z-score
GACGGACTGCTACTGCTGCCGTGCTAG	-0.838 z-score
TCAGGTCTTCACTTGGCACTGTGCTAG	0.00359 z-score
GCCGATATCAGACTGGAGACGTGCTAG	0.595 z-score
GACGGACTGAGACTGGAGACGTGCTAG	-0.39 z-score
TTTTGTTGTTTTTTGGTTTCGTGCTAG	4.64 z-score
TCATTTGTTTCACTTCCTACTGTGCTA	4.55 z-score
TTAGGTTTCCTTCTCCCTTAGTGCTAG	0.854 z-score
TTAGGTCTCGGTTTCGGTGAGTGCTAG	6.37 z-score
GACGGATTCGGACTGGGGACGTGCTAG	-0.396 z-score
TCCATCATTGCTTTCTCTTTGTGCTAG	2.22 z-score
CCCATTCCAGGGTTTTATGGAGTGCTA	-0.453 z-score
GACGGTTTCCTTTCCCTGTCGTGCTAG	1.96 z-score
TTAGATATGAGTCTCGATTAGTGCTAG	0.694 z-score
TCAGGTATTTTTTTGTAACTGTGCTAG	0.321 z-score
GACGGTCTCTTTATCCTGACGTGCTAG	0.0588 z-score
TTAGATCTCGGACTGGATTAGTGCTAG	-0.135 z-score

Block 4
Target: RNA binding protein fox-1 homolog 2, RRM domain, GST-SBP tag (RBFOX2, Homo sapiens, UniProt O43251-10, residues 100-194)
Method: RNA Bind-n-Seq
Molecule type: RNA
Sample: in vitro
Concentration: 365 nM
Notes: natural RNA segment, single round, ends assumed
Baseline: no-protein control
Direction: higher = stronger binding
Shared flanks, not repeated: GGGAGUUCUACAGUCCGACGAUC … UGGAAUUCUCGGGUGCCAA
Target sequence (chain): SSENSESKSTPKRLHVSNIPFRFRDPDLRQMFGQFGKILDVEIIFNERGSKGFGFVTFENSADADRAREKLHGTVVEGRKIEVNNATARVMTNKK
Sequence	RBNS enrichment (R)
AUUAAUUAUGGUUAGCUAUUUUUCUCUCAUUGAUUUUUGUGCCACUUGAAUGGAACAGAAGCAAGCCUUAUGUUUUGGAAGGUCUGCGGUAAAAUGCUGUGACUGUUUAC	0.673
AGGGAGCUUUGGGGAUGCGGGCCUUCCCUGGGGCUUGGACCUUUGCAGGGAGGCCAUGCCCGCCACCCCUCUUGUUCUGGAUCCCUGCUCCCCUCUGGGUGUGUGGGUGU	0.3
GGAAGGGCCUGGACAGUGUCUUGGUUUCACUGUUUUAUUUUAUUUUAUUUUUUAACUAAAGCUAUAUAAAGCUUGUGGAUUAAACAGAAUAAAUUUCUAAAUUUAAGAAC	0.572
CUGCCAGUGCCUUACAUUCUGGAGCGACCCCCCUCCCUGGUGCCUCCCAGCGAAGGGGGACCGCCGUUUGCACUUUCAUCGCCUACCCCGACGCGGGGCCCAGCUGCGGG	0.366
CUUCUUCAGGGUCUCCCCCCAACCCAACCCAACCAGAUGCUCCCACUUUUAGACAUCUUGUAAUGAAUAGGCCUUGUUGCUACUCUCAAAACAAAUCAAUCGGGAGGGGA	0.336
CGGAAUCCACUUAGGCAUGUGUCCCCUGAUGGAUGAAUACAUGGGAAUGGUGGAUACUGUCUUCUGACUCAGGCUCUAGGCUCCAUGGCUUCCUCUCUCUGGUCCUGCCA	0.262
GUCGGGCUUAUAAAAAUCUGUGCCAUCAUGGUGAUUUUAUCCAAGACUGCUCCACUUACCCCAGUGCUGGGGACAAGUUUCUGUUGAAACUUUAGAUAGCAGAAUUAUUU	0.338
UUAAAAAAAAAAUCUCGGCAGACAUAAGAGAACACAACCCCCCAUGCACAUCUGUAAAUGACUGUAUGGUUAUGAUUAUAGUACCACGAAAAAUCAUGUUAUUUUUUUUU	0.746
GUCUUUAUUUUAGGCUGGAUUUCAGAUGUGUUGCUUCUGAAGACACAAUGAAAGAAUGCAAUCUUCCCACCAGCUACAUGACUACUUGUUCUCUGUGAAGUGUACUCUUG	1.2
AGGGUCUCUGAGCUGACUCUGUAUUAAGGGAAAUUCUGCACACCACAGGUGAGGCUUUUUUCAGAUCAGUGGCCACCUCUUUUAGUCUGAGGAAUCCCAGAAGCAACCAG	0.358
UGGUUGUGGGUUUUUCAAGGUGCCAUAGCCACCCCCAAAGAUGUUUGUUUAAAGCGUGGGGUUUUUUAAUCUCUGCCACCCUUGUCAAGGGAGUCUUGUAAAGUUGCCGA	0.457
UAUAGAUCUCCACUACACUCCAGAAGCCCAUCCCUAGUCUCCAAAGCCCUGCCUCUGGGCAACUCGCUCAACUCUUGUCCACUAUUAGCUGUGGGCAGUGGAGGCAGAUA	0.171
